Experimental data gathered from unrelated publications.
Several values in a cell are separate wells, animals, samples, runs or records. ± gives the spread as reported.

Structure (SMILES) | target or system | test | test system | setting | how to read | measurement | value
COc1ccc(/C=C/c2nc3c(Cl)ncnc3[nH]2)cc1OC |  | HPLC | solution | after 1 h light exposure |  | purity | 99.2%
Cc1c(-c2ccc(N3CCc4cccc(C(=O)Nc5nc6ccccc6s5)c4C3)nc2C(=O)O)cnn1CC12CC3CC(CC(C3)C1)C2 |  |  | anaesthetised rat | intravenous infusion, 30 mg/kg | reference: baseline | platelet count | 16.7%
OCC1OC(n2cnc3c(NCc4ccc(Br)s4)ncnc32)C(O)C1O (stereo not shown) |  |  | Beagle dogs, both sexes, blood | oral, 3 mg/kg |  | Tmax | 1.5 to 2.8 h
O=C([O-])CN1CCN(CC(=O)[O-])CCN(C(CO)C(O)CO)CCN(CC(=O)[O-])CC1.[Dy+3] (stereo not shown) |  | ICP-MS | cynomolgus monkey | dose not given, 57 58 d, PK group | reference: dose | urinary excretion | 0.01%
CCCCN1C(=O)c2cccc3c(NCCN4CCOCC4)ccc(c23)C1=O |  |  | chloroform |  |  | fluorescence quantum yield | 0.2
[11CH3]N1CCC(NC(=O)c2cc(-c3c(O)cc(O)cc3Oc3ccc([N+](=O)[O-])cc3)on2)CC1 |  |  | healthy female Wistar rats, kidneys | intravenous, 2 min |  | standardized uptake value | 17.3 ± 0.6 g/mL
CCC1CNC(CC)CN(C(C(=O)[O-])c2ccc(C(=O)[O-])cc2)C(CC)CN(CC(=O)[O-])C(CC)CN1.[Mn+2] (stereo not shown) |  | ICP-MS | BALB/c mouse, heart | intravenous, 0.05 mmol/kg, 1440 min, without anaesthesia |  | Mn content | 0.62 ± 0.02 µg/g
C[n+]1cccc2cc(/C=N/NC(=O)N/N=C/c3ccc4c(ccc[n+]4C)c3)ccc21 | hp2 hairpin duplex DNA | FRET melting |  | 1 µM, with: ds26 10 µM |  | ΔTm | 0.6 ± 0.3 °C
COC(=O)[C@@]1(C(C)C)C=C(C(=O)Nc2cccc(C(=O)Nc3ccc(Nc4nccc(-c5cccnc5)n4)c(C)c3)c2)C(=O)CC1 |  |  | rat, blood plasma | 1 µM, 120 min |  | compound remaining | 74.1%
CCCCN1C(=O)c2cccc3c(NCCCCCCCCN4CCOCC4)ccc(c23)C1=O |  |  | water | pH 6.0 |  | Stokes shift | 106 nm
[2H]C([2H])([18F])Oc1cc(C(=O)OCC2CCN(CCCC)CC2)ccc1N |  | radioligand hydrolysis, esterase inhibitor | rhesus monkey whole blood | concentration not given |  | inhibition | 93 ± 2%
C=C(NC(=O)c1csc(-c2nc3c(cc2O)-c2nc(cs2)C(=O)NC(C(C)O)C(=O)NC(=C(C)OC)c2nc(cs2)C(=O)NC2c4nc(cs4)C(=O)NC(COC(=O)c4c5c6c(cccc6n4O)COC(=O)C(OC4CC(C)(O)C(N(C)C)C(C)O4)C2OC5)c2nc-3cs2)n1)C(N)=O (stereo not shown) |  |  | Sprague-Dawley rats, both sexes, plasma | intravenous infusion, 6 mg/kg, day 1, multiple dosing |  | AUC(0-inf) | 1790 ng·h/mL
COc1cccc(OC)c1-c1cc(C(=O)NC2(C(=O)O)C3CC4CC(C3)CC2C4)nn1-c1ccc(C(=O)N(C)CCCN(C)C(=O)[C@H](CCCCNC(=O)[C@H](CC(C)C)NC(=O)C2OC2C(=O)O)NC(=O)CN2CCN(CC(=O)[O-])CCN(CC(=O)[O-])CCN(CC(=O)[O-])CC2)cc1C(C)C.[177Lu+3] (mixture of isomers) |  |  | mouse HT-29 xenograft | 4 h, biodistribution | reference: tumour over stomach | tumour-to-stomach ratio | 26.4
CC(C)(O)c1ncc([S@](N)(=O)=NC(=O)Nc2c3c(cc4c2CCC4)CCC3)s1 |  | measured: Vascular disorders | healthy human volunteers | oral, 100 mg once daily, 14 days, spray-dried dispersion |  | subjects with adverse events | 17%
CCCCN1C(=O)c2cccc3c(NCCCCCN4CCOCC4)ccc(c23)C1=O |  |  | methanol |  |  | fluorescence lifetime | 8.8 ns
CC(C)Cc1ccc(C(C)C(=O)N[C@@H](CCCCNC(=O)CCOCCOCCOCCOCCOCCOCCNC(=O)CN2CCN(CC(=O)[O-])CCN(CC(=O)[O-])CCN(CC(=O)[O-])CC2)C(=O)Nc2cccc3c(C(=O)NCC(=O)N4CC(F)(F)C[C@H]4C#N)ccnc23)cc1.[177Lu+3] (stereo partly shown) |  |  | PBS | 4 h, 37 °C, 177Lu-labelled |  | radiochemical stability | 99.21 ± 0.2%
Cc1cc(-c2ccc(C(=O)[C@@H]3CCCC[C@H]3C(=O)Nc3cnn4c3C(=O)NCC4)cc2)[nH]n1 |  |  | human, urine | oral, 200 mg, 48-72 h | reference: dose | recovery of radioactivity per interval | 0.1%
O=C(Nc1cnccc1-c1ccc([18F])cc1)c1ccnc(NC(=O)C2CC2)c1 |  | ex vivo gamma counting | GSK-3β transgenic mice, early-stage, thalamus | intravenous, 120 min, mean, P-gp inhibitor pretreatment, with: tariquidar 15 mg/kg iv |  | SUV | 0.24
Fc1cccc(COc2ccc(Nc3ncnc4ccc(-c5cccc(CN6CCOCC6)c5)cc34)cc2Cl)c1 | Leishmania major | intracellular amastigote growth, luciferase | RAW264.7 macrophages |  |  | EC50 | 3000 nM

Structure (SMILES) | target or system | test | test system | setting | how to read | measurement | value
O=C(NCC1OC2CCC=CCCC2O1)c1ccc([18F])nc1 (stereo not shown) |  |  | healthy female BALB/c nude mice, bladder | intravenous, 7.4 MBq per mouse, 60 min |  | tissue uptake | 2.9 ± 1.1 %ID/g
CN([O-])C(=O)CN1CCNCCN(CC(=O)N(C)[O-])CC1.[89Zr+4] |  |  | mouse, pancreas | intravenous, 24 h |  | tracer uptake | 0.05 %ID/g
O=C1c2sc(-c3ccc(N4CCC(F)C4)nc3F)nc2CCN1c1cccnc1 (stereo not shown) |  | HPLC | rhesus monkey, plasma | intravenous, 6 min |  | parent fraction | 0.916
C=CC(=O)N1CCCC(n2c(=O)c3ncccc3n(Cc3ccc(Oc4ccccc4)cc3)c2=O)C1 (stereo not shown) |  |  | male BALB/c mouse, plasma | oral, 200 mg/kg, 0.5 h |  | plasma concentration | 32200 ng/mL
C[C@@H](C(=O)O)n1nc(Cn2cc3cc(OCC[18F])c(Cl)cc3n2)c2ccccc2c1=O |  | PET | C57BL/6 mouse male | 40 min |  | brain uptake | 0.34 %ID/g
CN(O)C(=O)CCC(=O)NCCCN(CCCCN(CCCNC(=O)CCC(=O)N(C)O)C(=O)CCC(=O)N(C)O)C(=O)CCC(=O)N(C)O.[89Zr] |  |  | mouse plasma | 7 d, 37 °C |  | intact complex | 100%
C=CC(=O)Nc1cc(Nc2nccc(-c3cn(C)c4ccccc34)n2)c(OC)cc1N(C)CCNC |  |  | human, dried blood spots | 10 d, room temperature, high QC level |  | remaining compound | 51.7%
C/C(N)=N/C(=N\S(=O)(=O)c1ccc(C(F)(F)F)cc1)N1C[C@H](c2ccccc2)C(c2ccc(Cl)cc2)=N1 |  |  | male C57BL/6 mouse, liver | oral, 10 mg/kg |  | Tmax | 1.5 h
CCCCN1C(=O)c2cccc3c(NCCCCCCCCCCN4CCOCC4)ccc(c23)C1=O |  |  | chloroform |  |  | Stokes shift | 83 nm
CN1C(=O)[C@@H](Cc2ccc(O)c(I)c2)NC(=O)CNC(=O)[C@H](Cc2ccc3ccccc3c2)NC(=O)[C@H](CCCNC(=N)N)NC(=O)[C@H]1CCCNC(=O)c1ccc(CNC(=O)CN2CCN(CC(=O)O)CCN(CC(=O)O)CCN(CC(=O)O)CC2)cc1 [lutetium-177 labelled] |  | 2 | human, extrapolated from mouse, breasts |  |  | total absorbed dose | 0.0012 mGy/MBq
CNc1cc(N)c(C(N)=O)c[n+]1C |  | substrate, measured: methylated product | rats, plasma | oral, 30 mg/kg, 1.00 h |  | plasma concentration of product | 199 nM and 191 nM
O=C(N/N=C/c1ccc2c(ccc[n+]2Cc2ccccc2)c1)c1cc(C(=O)N/N=C/c2ccc3c(ccc[n+]3Cc3ccccc3)c2)ncn1 | MYC parallel G4 DNA | FRET melting |  | 1 µM, DNA 0.2 µM |  | ΔTm | 6 ± 1.2 °C
C=CS(=O)(=O)c1ccc(OC)c(-c2c[nH]c3ncc(-c4cncc(C(=O)N(C)C)c4)cc23)c1 |  | HPLC | acetonitrile/water/DMSO | 50 µM, 37 °C, DIPEA 20 eq, with: N-α-acetyl-lysine |  | reactivity half-life | 8 to 10 h
Cc1n[nH]c(C)c1CCCOc1cc(C(=O)NCCCCC(NC(=O)CN2CCN(CC(=O)[O-])CCN(CC(=O)[O-])CCN(CC(=O)[O-])CC2)C(=O)NCC2CCC(C(=O)NC(Cc3ccc4ccccc4c3)C(=O)NCCCCC(NC(=O)NC(CCC(=O)O)C(=O)O)C(=O)O)CC2)ccc1F.[68Ga+3] (stereo not shown) |  | radio-HPLC | mouse serum | 4 h, 37 °C |  | radiochemical purity | 96.9 ± 1.05%
COC(=O)CN1CCN(Cc2cc(-c3nc4ccccc4s3)cc(OC)c2O)CCN(Cc2cc(-c3nc4ccccc4s3)cc(OC)c2O)CC1 |  | UV-vis spectrophotometric titration | aqueous NaCl 0.1 M | 20 µM, 25 °C, pH 3 to 11 |  | pKa3 | 7.3
N#C[C@@H]1CC(F)(F)CN1C(=O)CNC(=O)c1ccnc2c(NC(=O)[C@@H](N)CCCCNC(=O)CCOCCOCCOCCOCCOCCOCCNC(=O)CN3CCN(CC(=O)[O-])CCN(CC(=O)[O-])CCN(CC(=O)[O-])CC3)cccc12.[177Lu+3] |  |  | PBS | 24 h, 37 °C, 177Lu-labelled |  | radiochemical stability | 98.7 ± 1.2%
O=C(Nc1cnccc1-c1ccc([18F])nc1)c1ccnc(NC(=O)C2CC2)c1 |  |  | mice, transgenic, GSK-3β, early-stage, spleen | intravenous, dose not given, 120 min |  | SUV | 0.161
O=S(=O)(c1ccc(-c2ccc3ncnc(Nc4ccc(O)c(Cl)c4)c3c2)cc1)N1CCOCC1 | Leishmania major | intracellular amastigote growth, luciferase | RAW264.7 macrophages |  |  | EC50 | > 15000 nM
